Measured values of several laboratories.
Protocols differ between the studies behind these lines.
ABL1: Tyrosine-protein kinase ABL1 (ABL1, Homo sapiens, UniProt P00519)
ABL1 E255K phosphorylated: Tyrosine-protein kinase ABL1, phosphorylated (ABL1, Homo sapiens, UniProt P00519, E255K)

CCOC(=O)[C@](CC)(CCCSCCOCCOCCNC(=O)c1ccc(-c2c3ccc(=N)c(S(=O)(=O)O)c-3oc3c(S(=O)(=O)O)c(N)ccc23)c(C(=O)O)c1)NC(=O)c1ccc(C2CC2)c(Cc2ccc(F)cc2)n1 gave an inhibition of 13% (ABL1; enzyme activity, inhibitor; 10 µM).
O=C1NC(=O)c2c1c1cc(F)c[n+]3c1c1c2c2cc(O)ccc2[n]1[Ru-4]312([N]=C=S)[S+]3CC[S+]1CC[S+]2CC3 (centres unmarked) gave a remaining activity of 118% (Tyrosine-protein kinase ABL1 (ABL1, Homo sapiens, UniProt P00519, Y253F); enzyme activity; 100 nM, human enzyme, together with: 10 µM ATP; baseline: untreated).
Nc1ccc(/C=C/C(=O)N2CCc3c(oc4c(-c5ccc(F)cc5)cc(-c5ccc(C(=O)N6CCC(F)(F)CC6)cn5)cc34)C2)cn1 has a remaining binding of 76% (ABL1 E255K phosphorylated; binding, competition with immobilised ligand; 1 µM).
For N[C@H](C(=O)N1CCCC1)C1CCN(c2nccc3c(-c4ncc(Cl)cc4Cl)cccc23)CC1, the inhibition was 10% (ABL1; enzyme activity, inhibitor; 10 µM).
CS(C)(=O)=Nc1ccc(-c2ccc(-c3nc4cc(O[C@@H]5CO[C@H]6[C@@H]5OC[C@H]6O)[nH]c4cc3F)cc2)cc1 has an inhibition of 1% (Tyrosine-protein kinase ABL1 (ABL1, Homo sapiens, UniProt P00519, T315I); enzyme activity, inhibitor; 10 µM).
The remaining binding of CCOC(=O)[C@@H]1Cc2c(cc([N+](=O)[O-])cc2[N+](=O)[O-])[C@H](O)[C@]12C(=O)Nc1ccc(Br)cc12 is reported as 60% (ABL1 E255K phosphorylated; binding, competition with immobilised ligand; 0.1 µM).
The inhibition of CC(C)[C@H]1NC(=O)C[C@H]2/C=C/CCSSC[C@@H](NC1=O)C(=O)N[C@H](Cc1cccc3ccccc13)C(=O)NCC(=O)O2 is reported as -4.8% (Tyrosine-protein kinase ABL1 (ABL1, Homo sapiens, UniProt P00519, E255K); enzyme activity, inhibitor; 10 µM).
With C[C@H](NCc1ccc(-c2ccc(C(F)(F)F)cc2)cc1)C(N)=O the inhibition was 10% (Tyrosine-protein kinase ABL1, non-phosphorylated (ABL1, Homo sapiens, UniProt P00519); cell-free assay, competition with immobilised ligand; 1 µM).

Repeated from above:
The inhibition of CC(C)[C@H]1NC(=O)C[C@H]2/C=C/CCSSC[C@@H](NC1=O)C(=O)N[C@H](Cc1cccc3ccccc13)C(=O)NCC(=O)O2 is reported as -4.8% (Tyrosine-protein kinase ABL1 (ABL1, Homo sapiens, UniProt P00519, E255K); enzyme activity, inhibitor; 10 µM).
